Measured values pooled from the literature.
Each numbered part is a random draw from the data of one study; scales do not carry over between parts. Substitutions count along the parent as printed.

Block 1
Target: Ras GTPase-activating protein-binding protein 1, RRM domain (G3BP1, Homo sapiens, UniProt Q13283)
Sequence of UniProt Q13283 (whole entry, looked up): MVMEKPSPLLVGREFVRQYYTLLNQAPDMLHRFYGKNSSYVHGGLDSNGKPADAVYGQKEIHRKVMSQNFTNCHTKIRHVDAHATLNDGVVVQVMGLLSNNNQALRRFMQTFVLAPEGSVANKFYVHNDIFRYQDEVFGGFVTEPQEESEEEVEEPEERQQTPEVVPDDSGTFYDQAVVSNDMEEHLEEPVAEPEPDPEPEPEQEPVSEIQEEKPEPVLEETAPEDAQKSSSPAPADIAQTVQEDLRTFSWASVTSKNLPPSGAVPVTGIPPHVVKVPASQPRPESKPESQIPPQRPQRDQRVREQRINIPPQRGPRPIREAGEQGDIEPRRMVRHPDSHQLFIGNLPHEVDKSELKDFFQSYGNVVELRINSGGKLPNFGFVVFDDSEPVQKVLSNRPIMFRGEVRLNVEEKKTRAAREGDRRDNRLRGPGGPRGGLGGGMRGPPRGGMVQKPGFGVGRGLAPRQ
Method: RNA Bind-n-Seq
Form: RNA
Matrix: in vitro
Tested at: 1 µM
Setting: whole 134-nt RNA, ends assumed
With: 150 mM KCl
Reference: input library
Reading: higher = stronger binding
Constant ends, left off below: GGGAGUUCUACAGUCCGACGAUC … UGGAAUUCUCGGGUGUCAAGG
| Oligonucleotide | log2 enrichment |
| --- | --- |
| CCUCAAGUCCUGUGCUACACAUCGUAUGUACCGAAUCGGGAAGGAAGGGAAGGAAAGUAUUAUGUUACGCCGUUCGGAUCUGCACUUCCA | -0.271 |
| CACAGACAACACGCACCCACACAGACACAGAGGGAAGGGGUUGGGAUGGGGACAGGGUGCACAGCAGGGCGGGGUAGGACCCCAGCCCCG | -0.25 |
| CUCAAGUCCUGUGCUACACAUCGUAUGUACCGAAUCGGGGCCGGGCCGGCCGGAAAGUAUUAUGUUACGCCGUUCGGAUCUGCACUUCCA | -0.419 |
| GCAGGAAGUAAAAACAAAUGGAAAUGCUUCGGAUAGUGGCAGGGGUGGGGGUUGCUAAGGAAGGGGUGGGAUGGGAGUGGGUAAAGAGUU | 1.25 |
| CAAGUCCUGUGCUACACAUCGUAUGUACCGAAUCGGUUUGGAAAAAGGAAAAAGGAAAGUAUUAUGUUACGCCGUUCGGAUCUGCACUUC | -0.201 |
| CCUGUGCUACACAUCGUAUGUACCGAAUCGGCCCCCCGGGGCCCCCCGGGCCCCCCGGGGAAAGUAUUAUGUUACGCCGUUCGGAUCUGC | -0.615 |
| GCUUUGCCUUCACUUAUUUCUUUGCUUUUUAAAAACUAUUUGUAAUGUAAUUUUAAUGCAUUUUUUACAGGCCCAGUAAUGGUUAAAUAC | -0.324 |
| UGGGAGGUGGAUUUUGUUUAUUUUUUUAGCUCAUUUCUAGGGGUGGGAAUUUUUUUUUAAUAUGUGUCAUGAAUAAAGUUGUUUUUGAAA | 2.07 |
| AGUCCUGUGCUACACAUCGUAUGUACCGAAUCAAACCCCCAAAUUUAAAUUUUUAAAAAAGUAUUAUGUUACGCCGUUCGGAUCUGCACU | -0.331 |
| CACAGACAACACGCACCCACACAGACACAGAGGGAAGGGGUUGGGAUGGGGACAGGGUGCACAGCAGGGCGGGGUAGGACCGCAGCCCCU | -0.393 |
| UCCUGUGCUACACAUCGUAUGUACCGAAUCAAACCCCCCCAAAUUUAAACCCCCCCAAAAAAGUAUUAUGUUACGCCGUUCGGAUCUGCA | 0.98 |
| GUCCUGUGCUACACAUCGUAUGUACCGAAUCAAACCCCCCCAAAUUUAAACCCCCAAAAAAGUAUUAUGUUACGCCGUUCGGAUCUGCAC | 0.0901 |
| CAAGUCCUGUGCUACACAUCGUAUGUACCGAAUCGGCCCGGGGCCCGGGCCCGGGAAAGUAUUAUGUUACGCCGUUCGGAUCUGCACUUC | -0.699 |
| ACCAUGCAGGUGGGCAUCUUUGGGAAGUGGGGCAAGGGGGGGAUAGGGAGGGGGGUAACACUUUGGGAACAGGUGGUCCCAGGUUGUUUC | 1.06 |

Block 2
Target: RING finger protein unkempt homolog, zinc fingers 1-6, GST-SBP tag (UNK, Homo sapiens, UniProt Q9C0B0, residues 30-357)
Method: RNA Bind-n-Seq
Form: RNA
Matrix: in vitro
Tested at: not given
Setting: RNA with constant flanks, human and mouse sites, ends assumed
Reference: input RNA pool
Reading: higher = stronger binding
Constant ends, left off below: GGGAGUUCUACAGUCCGACGAUC … CAACAGAGGAUUGAGCAUCA
Construct (chain): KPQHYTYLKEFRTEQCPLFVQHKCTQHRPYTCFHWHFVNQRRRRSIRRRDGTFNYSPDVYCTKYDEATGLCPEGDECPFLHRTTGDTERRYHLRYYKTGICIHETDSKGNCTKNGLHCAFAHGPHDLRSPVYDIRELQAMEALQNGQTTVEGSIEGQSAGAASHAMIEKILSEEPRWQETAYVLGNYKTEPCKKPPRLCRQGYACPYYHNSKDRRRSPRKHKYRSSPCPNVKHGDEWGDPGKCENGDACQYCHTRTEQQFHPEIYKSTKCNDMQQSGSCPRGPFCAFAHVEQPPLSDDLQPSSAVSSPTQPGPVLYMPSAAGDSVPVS
| Oligonucleotide | bound/input enrichment [ratio] |
| --- | --- |
| GCAGUGGAAUGCAGUUAUAUUUGGACCAGAAGGGACACCUUUUGAAGAUGGUACUUUUAAACUAGUAAUAGAAUUUUCUGAAGAAUAUCCAAAUAAACCACCAACUGUUAGGUUUUUAUC | 3.41 |
| UGCUACCUCAUCUACACAGAUGAAACACAGCCCGAAAUGGAACUGUUCCUUAAGGACCAUUCACCUAAACUUAAAAGAAUGUGCGAGACAAUGGGAUAUUUCUUCCUCGCUGUUUAUUUU | 0.132 |
| AAAUUAACUGAGCUAUAUAAUGCUUAUGUGGAAACUCAGGAUCAGUUGCUUUUGGAAAAACAAGAAAAUAAAAGGAUUAAUAAGUAUCUGGAUGAGAUAGUAAAAGAAGUGGAAGCCAAA | 0.563 |
| ACCCCCUCUAGGAAGUUAUUUUAUGUAGCAUGUUUGCAUAUACGCAUUGUGUGGCAUGUGCAUAGAGGCUUGUUUUACACCUAUCUGCUCAUUUUGUUGUGUUAGCUUUUCUGGUUUAUU | 1.38 |
| AUAUCUUAUUGCCAUAAACUCCAUGUGGUUCACAGAGACUUAAAACCAGAGAAUGUAGUCUUCUUUGAAAAACAAGGUCUUGUAAAGUUGACAGACUUUGGGUUCAGCAACAAAUUUCAA | 0.141 |
| CAUUUUCUUACAUUUUCCUGUGAUUUUCGAAACUAAACCAUUGUGUGUCCUGUAGUGUCCUGGUUGAGCUGCCGCUCAGCAGCUUCCUCGGGGGGAUUUGGAACACCUGUGUCUGUCGCC | 0.27 |
| GCAAAAGUUUAUGUCUCAUUGGAUCAACCUGUGACUGCUUUAAAUCUUUUCAAACAAGGCUUAGAUAAGUUUCCAGGAGAAGUAACCCUGCUCUGUGGAAUUGCAAGAAUCUAUGAGGAA | 0.186 |
| GACAGCUUUGUAAAAUCCGGAGUCUUCAAUGUAUCAGAGCUUGUGAGAGUAUCCAGAACACCCAUAACCCAGGGAACUGGAGUCAACUUCCCAAUCGGAGAAAUUCCCAGCCAACCAUAC | 0.266 |
| ACUUCAGUGGCUGGAACAGUGAGAAAAUGCUGGCCUAAUAGAGUGGCAAAGGAGCAGAUUAGUAGGCGGCUUGAUGGUAAUCAGUAUCUGUUUUUGCCACCAAAUCGUUACAUUUUCCAU | 0.168 |
| UACCUCAGUACCUCAGUAGGAUGCAAGGACUGUGCCUUCUUUGACUCAGCCAGUGCUUGCUAUAGUCAGGCUACAAGCCAAGAGGUCCCCACAGAGUAUUAACAAUAAAUACUUCUGGCC | 0.0703 |
| CAGAAUACCCAGGGUCUUAUUUUUGUGGUAGAUAGCAACGAUCGUGAAAGAAUUCAGGAAGUAGCAGAUGAGCUGCAGAAAAUGCUUCUGGUAGAUGAAUUGAGAGAUGCAGUGCUGCUA | 0.31 |

Block 3
Target: CCNE2, cyclin fold, Cln2 fusion (human)
Method: yeast growth competition, sequencing
Matrix: yeast
Setting: weak parent motif
Reference: not given
Reading: higher = stronger binding
Starting sequence: ORC1 docking peptide (human); PRARKRLELGNLG; partner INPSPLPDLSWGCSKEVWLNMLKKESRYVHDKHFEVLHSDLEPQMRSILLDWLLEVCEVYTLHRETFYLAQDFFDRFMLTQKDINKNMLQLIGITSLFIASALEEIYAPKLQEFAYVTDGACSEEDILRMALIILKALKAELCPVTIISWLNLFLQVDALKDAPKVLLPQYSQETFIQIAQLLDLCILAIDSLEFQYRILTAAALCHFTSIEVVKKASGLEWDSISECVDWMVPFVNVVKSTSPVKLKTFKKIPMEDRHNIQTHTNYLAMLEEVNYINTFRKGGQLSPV
| Substitution | normalised enrichment score |
| --- | --- |
| L9A | 0.722 |
| L7F | 0.0939 |
| N11C | 1.11 |
| R2M | 1.22 |
| E8T | -0.347 |
| G13K | 0.938 |
| L9V | 1.36 |
| G10P | 0.0886 |
| G13N | 0.928 |
| P1F | -0.522 |
| R6N | 0.00402 |
| R4E | 0.637 |
| R2H | 0.659 |

Single results of other studies
| Molecule | target | assay | system | conditions | how to read | quantity | value |
| --- | --- | --- | --- | --- | --- | --- | --- |
| PhoQ, residues 284 288 289 292 302 303 NLSRDF | PhoP, residues 12 14 15 18 19 QWHVF (Escherichia coli, UniProt P23836) | Sort-seq, measured: YFP reporter | E. coli | PhoQ-PhoP variant library, with: 10 µM Mg2+ | reference: high Mg2+ state, higher = stronger signaling | fold induction | 12.5 |

Some of these lines once more (block 1):
| Oligonucleotide | log2 enrichment |
| --- | --- |
| CAAGUCCUGUGCUACACAUCGUAUGUACCGAAUCGGUUUGGAAAAAGGAAAAAGGAAAGUAUUAUGUUACGCCGUUCGGAUCUGCACUUC | -0.201 |
| CACAGACAACACGCACCCACACAGACACAGAGGGAAGGGGUUGGGAUGGGGACAGGGUGCACAGCAGGGCGGGGUAGGACCGCAGCCCCU | -0.393 |
| CCUGUGCUACACAUCGUAUGUACCGAAUCGGCCCCCCGGGGCCCCCCGGGCCCCCCGGGGAAAGUAUUAUGUUACGCCGUUCGGAUCUGC | -0.615 |
| CAAGUCCUGUGCUACACAUCGUAUGUACCGAAUCGGCCCGGGGCCCGGGCCCGGGAAAGUAUUAUGUUACGCCGUUCGGAUCUGCACUUC | -0.699 |
| CUCAAGUCCUGUGCUACACAUCGUAUGUACCGAAUCGGGGCCGGGCCGGCCGGAAAGUAUUAUGUUACGCCGUUCGGAUCUGCACUUCCA | -0.419 |
